Measured values pooled from the literature.
Lines come from different studies, so protocols differ. Values joined by “and” are separate records of one study, mostly repeats; a detail may differ. ± marks the error that the study gave.

Structure (SMILES)	cell line	test	conditions	how to read	quantity	value
Cc1c2ccnc(C(=O)N[C@H](C)CN(C)C)c2cc2c3cc(OCCCN4CCN(C)CC4)ccc3n(C)c12	C9orf72 patient-derived iPSC	qRT-PCR, item: C9orf72 intron 1	0.5 µM, with: siRNA 500 nM	–	C9orf72 intron RNA level	59%
N#Cc1cccc(/C=C/C(=O)c2ccc(O)cc2)c1	U-87 MG	item: KLHL24	concentration not given	baseline: untreated	fold change	45.6
CNS(=O)(=O)Nc1nccc(Cc2c(C)c3ccc(Oc4ncccc4F)cc3oc2=O)c1F	NCI-H1666	cell viability	7 days	–	IC50	1.94 nM
CCN(CC)CC(=O)Nc1cccc(-n2cc(-c3ccc4ccc(-c5cn(-c6cccc(NC(=O)CN(CC)CC)c6)nn5)cc4c3)nn2)c1	RCC4	PCR angiogenesis array, item: IFNA1	5 x IC50, 2 h, normoxia	baseline: untreated	fold regulation	-2.25
COC(=O)[C@H](C)NC(=O)[C@H](C)NC(=O)c1csc(-c2cccnc2)n1	OCI	cell viability	–	–	EC50	7200 nM
Cc1nc(Nc2ncc(C(=O)Nc3c(C)cccc3Cl)s2)cc(N2CCN(C(=O)CN)CC2)n1	KU812	flow cytometry	concentration not given, 1 h	–	late apoptotic cells	2.69% and 3.23% and 2.61%
CC(C)c1ccc(N(C)c2ccc3c(c2)OCC[C@H]3CNc2cnccc2C(=O)O)cc1	HLF	cell growth or viability, ATP luminescence	7 days	–	IC50	18 nM
CC(=O)Oc1ccccc1C(=O)[Se]CC(=O)Nc1cccc(C(F)(F)F)c1	NCI60 breast subpanel	cell growth	10 µM, 48 h, one-dose	–	mean growth percent	-43.2%
CCOc1cncc(-c2ccc(NC(=O)C3(c4ccnc(NS(=O)(=O)C5CC5)n4)CCOCC3)nc2)n1	KG-1	cell proliferation, CellTiter-Glo	72 h	–	IC50	95 nM
COc1ccccc1-c1ccncc1C(=O)Nc1nnc(OCc2ccc(Cl)cc2)s1	DLD-1 parental	–	8 µM, single replicate	–	colony count	69 and 72 and 79 and 82
C=CC(=O)N1CCCC(n2c(=O)c3ncccc3n(Cc3ccc(Oc4ccccc4)cc3)c2=O)C1 (centres unmarked)	Rec1	item: TXNIP	concentration not given	baseline: untreated	log2 fold change	-0.68
[Cl-].[Cl-].[Ru+2].c1cc(-c2ccc3cccnc3n2)nc(-c2ccc3cccnc3n2)c1.c1ccc2cc3nc4c5cccnc5c5ncccc5c4nc3cc2c1	B16-F10	–	visible light 100 J/cm2	baseline: dark EC50 over light EC50	phototherapeutic index	9
COc1cc([C@@H]2O[C@@H](c3cc(OC)c(O[C@@H]4O[C@H](CO)[C@@H](O)[C@H](O)[C@H]4O)c(OC)c3)[C@H](CO)[C@H]2CO)cc(OC)c1O	differentiating 3T3-L1	Western blot, item: C/EBPα PPARγ SREBP1c	concentration not given, day 2	–	protein expression	decreased
NC(=O)c1ccc(-c2ccccc2Cl)c2c3c([nH]c12)CC[C@H](N)C3	HuCCT-1	cell growth or viability	–	–	IC50	4.54 nM
CN1CCCNC(=O)c2cccc(c2)C(=O)NCCCN(C)CCCNc2cccc3c2C(=O)c2cccc(c2C3=O)NCCC1	SAS	annexin V/PI staining	5 µM, 24 h, mean	–	PI-positive cells	10.9%
COC(=O)c1cc(NC2=NC(=O)C(=Cc3ccc(C)cc3)S2)ccc1OC(C)=O	MCF7	GC-MS, item: Serine	1 µM	baseline: DMSO	metabolite level	-0.51 fold change
CSCC[C@@H](N)C(=O)N[C@@H](CCSC)C(=O)N[C@@H](CCCNC(=N)N)C(=O)N[C@@H](Cc1c[nH]c2ccccc12)C(=O)N[C@@H](CO)C(=O)N[C@@H](CCCNC(=N)N)C(=O)N[C@@H](CCCCN)C(=O)N[C@@H](CCSC)C(=O)N1CCC[C@H]1C(=O)N[C@@H](CS)C(=O)N[C@H](C(=O)N[C@@H](CO)C(=O)O)C(C)C	SUP-T1	CXCL12-induced Erk phosphorylation, phospho flow cytometry	concentration not given, with: CXCL12	–	inhibition	no inhibition
COc1ccc2c(c1)c(CC(=O)[Se]CC(=O)Nc1cccc(C(F)(F)F)c1)c(C)n2C(=O)c1ccc(Cl)cc1	NCI60 breast subpanel	cell growth	10 µM, 48 h, one-dose	–	mean growth percent	-84%
Cn1ncc2cc(-c3cncc(Cl)c3N3CCC4(CCNC4=O)CC3)ccc21	LS174T	gene expression, microarray, item: CXCR4 mRNA	concentration not given, 24 h	baseline: untreated cells	log2 fold change	2.78
CC(C)(C)c1cc(-c2ccc3cc4ccccc4nc3n2)nc(-c2ccc3cc4ccccc4nc3n2)c1.Cc1ccncc1.[Cl-].[Cl-].[Ru+2].c1ccc2cc3nc4c5cccnc5c5ncccc5c4nc3cc2c1	B16-F10	cytotoxicity, resazurin	dark	–	EC50	58800 nM
CSC(=S)N/N=C(\C)c1ccc(S(=O)(=O)N2CCC(C)CC2)cc1	HCT-116	flow cytometry	3.66 µM (IC50), 72 h	–	cells in pre-G1 phase	11.2%
CC(C)(C)c1cc(-c2ccc3cccnc3n2)nc(-c2ccc3cccnc3n2)c1.[Cl-].[Cl-].[Ru+2].c1cnc2c(c1)ccc1cccnc12	B16-F10	resazurin	with: light 633 nm, 20 mW, 100 J/cm2	–	EC50	166000 ± 5000 nM
CCCCCCc1cccc([C@H](O)C[C@H](CO)NC(=O)CCCCCCCCCCBr)c1	HeLa	CERT activity, HPLC-MS/MS lipidomics, item: lactosylceramide 24:1	1 µM, 24 h, not cell-number normalised	–	lactosylceramide level	6410 pmol/sample and 8450 pmol/sample and 9050 pmol/sample
Cc1ncsc1-c1ccc(C(C)NC(=O)C2CC(O)CN2C(=O)C(NC(=O)CCCCCCCCCCN2CCCC(Nc3ncc(Cl)c(Nc4ccccc4S(=O)(=O)C(C)C)n3)C2)C(C)(C)C)cc1 (centres unmarked)	22Rv1	RNA-seq, item: SEMA6A-AS1	concentration not given	baseline: DMSO	log2 fold change	-1.55
CC(=O)NCC(=O)N[C@@H](Cc1ccccc1)C(=O)N[C@@H](Cc1ccccc1)C(=O)N[C@@H](Cc1ccc(O)cc1)C(=O)NCC(=O)N[C@@H](Cc1ccc(O)cc1)C(=O)NCC(=O)N[C@@H](CO)C(=O)N[C@@H](CO)C(=O)N[C@@H](CO)C(=O)N[C@@H](CCCNC(=N)N)C(=O)N[C@@H](CCCNC(=N)N)C(=O)N[C@@H](C)C(=O)N1CCC[C@H]1C(=O)N[C@@H](CCC(N)=O)C(=O)N[C@H](C(=O)O)[C@@H](C)O	mouse dermal papilla cells	western blot	100 nM	baseline: untreated	IGF-1R phosphorylation	1.34 fold
C1=[N+]2CCCC[N+]3=Cc4ccc5[n]4[Au-]23[n]2c1ccc2-c1nc2ccccc2nc1-5.F[P-](F)(F)(F)(F)F	NCI/ADR-RES	–	NCI60 five-dose screen	–	TGI	4 -log M

For quick reference, copied from above:
Structure (SMILES)	cell line	test	conditions	how to read	quantity	value
COc1ccc2c(c1)c(CC(=O)[Se]CC(=O)Nc1cccc(C(F)(F)F)c1)c(C)n2C(=O)c1ccc(Cl)cc1	NCI60 breast subpanel	cell growth	10 µM, 48 h, one-dose	–	mean growth percent	-84%
Cn1ncc2cc(-c3cncc(Cl)c3N3CCC4(CCNC4=O)CC3)ccc21	LS174T	gene expression, microarray, item: CXCR4 mRNA	concentration not given, 24 h	baseline: untreated cells	log2 fold change	2.78
CC(C)(C)c1cc(-c2ccc3cc4ccccc4nc3n2)nc(-c2ccc3cc4ccccc4nc3n2)c1.Cc1ccncc1.[Cl-].[Cl-].[Ru+2].c1ccc2cc3nc4c5cccnc5c5ncccc5c4nc3cc2c1	B16-F10	cytotoxicity, resazurin	dark	–	EC50	58800 nM
